Assay results gathered from unrelated publications.
Chain of UniProt Q9UBE8 (whole entry, looked up): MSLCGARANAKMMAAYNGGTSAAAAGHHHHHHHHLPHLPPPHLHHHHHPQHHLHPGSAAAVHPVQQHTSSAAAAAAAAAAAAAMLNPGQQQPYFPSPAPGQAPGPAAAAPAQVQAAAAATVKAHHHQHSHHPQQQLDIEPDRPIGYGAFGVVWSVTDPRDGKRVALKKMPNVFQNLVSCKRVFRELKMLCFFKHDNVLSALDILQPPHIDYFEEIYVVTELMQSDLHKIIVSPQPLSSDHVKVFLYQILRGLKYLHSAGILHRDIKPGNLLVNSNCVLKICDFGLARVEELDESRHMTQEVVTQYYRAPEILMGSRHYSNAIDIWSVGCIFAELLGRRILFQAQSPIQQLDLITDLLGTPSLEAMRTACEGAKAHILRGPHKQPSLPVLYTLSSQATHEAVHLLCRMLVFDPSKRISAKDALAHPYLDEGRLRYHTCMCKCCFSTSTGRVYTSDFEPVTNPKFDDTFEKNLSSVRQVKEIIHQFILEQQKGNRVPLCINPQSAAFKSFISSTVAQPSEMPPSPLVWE
Chain of UniProt P33981 (whole entry, looked up): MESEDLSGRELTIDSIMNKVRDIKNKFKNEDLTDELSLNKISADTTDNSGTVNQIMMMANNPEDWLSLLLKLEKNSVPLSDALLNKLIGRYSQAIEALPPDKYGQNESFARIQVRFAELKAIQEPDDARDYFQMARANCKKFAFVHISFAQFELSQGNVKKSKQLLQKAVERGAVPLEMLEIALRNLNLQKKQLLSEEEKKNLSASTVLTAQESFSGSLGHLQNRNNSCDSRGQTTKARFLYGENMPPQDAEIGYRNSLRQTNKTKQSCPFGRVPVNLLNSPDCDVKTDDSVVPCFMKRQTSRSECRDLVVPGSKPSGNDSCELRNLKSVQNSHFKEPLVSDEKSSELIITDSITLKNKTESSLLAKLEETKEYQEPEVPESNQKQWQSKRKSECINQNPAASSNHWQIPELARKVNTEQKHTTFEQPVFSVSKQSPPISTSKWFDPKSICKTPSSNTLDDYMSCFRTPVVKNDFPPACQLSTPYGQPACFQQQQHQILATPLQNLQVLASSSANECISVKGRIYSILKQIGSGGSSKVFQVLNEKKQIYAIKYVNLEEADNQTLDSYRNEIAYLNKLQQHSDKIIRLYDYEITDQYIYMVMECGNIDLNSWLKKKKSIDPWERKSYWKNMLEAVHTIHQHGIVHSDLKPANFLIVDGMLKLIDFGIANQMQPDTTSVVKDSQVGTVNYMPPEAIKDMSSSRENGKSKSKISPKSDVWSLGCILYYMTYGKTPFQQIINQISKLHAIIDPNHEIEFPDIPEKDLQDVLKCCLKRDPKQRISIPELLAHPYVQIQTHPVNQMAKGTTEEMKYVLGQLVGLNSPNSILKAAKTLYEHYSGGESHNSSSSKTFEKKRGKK
Chain of UniProt Q9Y345 (whole entry, unmodified, looked up): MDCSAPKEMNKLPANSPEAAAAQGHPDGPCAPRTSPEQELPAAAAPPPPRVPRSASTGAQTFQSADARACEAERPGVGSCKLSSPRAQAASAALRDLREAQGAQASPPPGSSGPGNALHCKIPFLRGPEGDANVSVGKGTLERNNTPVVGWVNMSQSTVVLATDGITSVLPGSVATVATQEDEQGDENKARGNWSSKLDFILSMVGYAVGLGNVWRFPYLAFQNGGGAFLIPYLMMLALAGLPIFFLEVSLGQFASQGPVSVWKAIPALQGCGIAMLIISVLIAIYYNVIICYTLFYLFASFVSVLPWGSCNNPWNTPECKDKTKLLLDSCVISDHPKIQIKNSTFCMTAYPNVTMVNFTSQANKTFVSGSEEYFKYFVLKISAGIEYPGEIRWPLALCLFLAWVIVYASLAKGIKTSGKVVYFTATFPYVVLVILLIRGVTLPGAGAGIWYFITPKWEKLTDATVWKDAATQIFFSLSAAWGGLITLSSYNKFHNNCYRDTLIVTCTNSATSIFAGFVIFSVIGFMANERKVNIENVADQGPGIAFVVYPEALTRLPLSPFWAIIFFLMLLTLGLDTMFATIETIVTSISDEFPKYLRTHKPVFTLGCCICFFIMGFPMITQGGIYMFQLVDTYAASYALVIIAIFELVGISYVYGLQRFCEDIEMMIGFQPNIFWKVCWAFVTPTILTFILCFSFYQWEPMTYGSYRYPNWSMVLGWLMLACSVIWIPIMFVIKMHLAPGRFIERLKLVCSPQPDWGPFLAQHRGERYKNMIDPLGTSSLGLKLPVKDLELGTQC
Chain of UniProt O75914 (whole entry, looked up): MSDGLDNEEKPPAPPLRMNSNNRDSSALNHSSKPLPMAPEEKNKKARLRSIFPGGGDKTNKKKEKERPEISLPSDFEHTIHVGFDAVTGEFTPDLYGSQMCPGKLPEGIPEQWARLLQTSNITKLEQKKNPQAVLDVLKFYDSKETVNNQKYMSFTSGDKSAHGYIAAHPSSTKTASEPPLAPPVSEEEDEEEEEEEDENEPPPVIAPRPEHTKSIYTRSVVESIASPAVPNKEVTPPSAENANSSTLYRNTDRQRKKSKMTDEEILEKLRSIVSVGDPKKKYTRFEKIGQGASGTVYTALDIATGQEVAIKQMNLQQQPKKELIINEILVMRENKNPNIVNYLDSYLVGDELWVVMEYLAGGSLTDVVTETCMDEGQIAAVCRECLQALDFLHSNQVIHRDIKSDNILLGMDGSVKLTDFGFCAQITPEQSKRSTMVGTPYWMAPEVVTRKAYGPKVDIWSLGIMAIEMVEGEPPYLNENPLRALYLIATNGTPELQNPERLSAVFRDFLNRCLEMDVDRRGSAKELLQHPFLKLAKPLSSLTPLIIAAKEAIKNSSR
Chain of UniProt P34947 (whole entry, looked up): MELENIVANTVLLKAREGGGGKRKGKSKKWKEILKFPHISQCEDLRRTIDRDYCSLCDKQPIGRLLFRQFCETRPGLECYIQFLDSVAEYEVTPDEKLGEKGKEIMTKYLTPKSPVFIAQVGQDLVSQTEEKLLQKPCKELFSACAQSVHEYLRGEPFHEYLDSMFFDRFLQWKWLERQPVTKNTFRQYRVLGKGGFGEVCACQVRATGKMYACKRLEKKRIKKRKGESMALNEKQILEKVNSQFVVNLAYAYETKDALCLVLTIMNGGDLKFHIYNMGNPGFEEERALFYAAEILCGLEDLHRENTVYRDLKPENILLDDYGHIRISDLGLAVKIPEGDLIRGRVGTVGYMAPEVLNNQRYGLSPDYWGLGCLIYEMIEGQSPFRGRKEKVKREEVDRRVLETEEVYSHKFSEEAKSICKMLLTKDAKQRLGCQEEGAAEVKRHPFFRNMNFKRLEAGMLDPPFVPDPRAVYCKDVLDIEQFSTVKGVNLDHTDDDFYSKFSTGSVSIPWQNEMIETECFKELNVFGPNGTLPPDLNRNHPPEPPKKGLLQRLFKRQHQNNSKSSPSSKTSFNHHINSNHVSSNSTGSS
Chain of UniProt P45983 (whole entry, looked up): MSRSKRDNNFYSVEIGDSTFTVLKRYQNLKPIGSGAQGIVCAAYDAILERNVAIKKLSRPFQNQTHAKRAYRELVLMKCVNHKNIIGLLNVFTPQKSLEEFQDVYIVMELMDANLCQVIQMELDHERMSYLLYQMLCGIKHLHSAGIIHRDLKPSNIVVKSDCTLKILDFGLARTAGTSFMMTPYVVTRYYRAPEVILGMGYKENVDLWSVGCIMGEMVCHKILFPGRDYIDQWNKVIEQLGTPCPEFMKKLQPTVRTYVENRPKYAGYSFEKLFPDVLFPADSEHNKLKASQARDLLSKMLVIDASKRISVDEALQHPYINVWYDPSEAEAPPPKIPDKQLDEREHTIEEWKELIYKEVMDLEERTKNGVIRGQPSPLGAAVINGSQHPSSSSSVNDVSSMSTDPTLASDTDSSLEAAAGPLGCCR
Chain of UniProt P42337 (whole entry, looked up): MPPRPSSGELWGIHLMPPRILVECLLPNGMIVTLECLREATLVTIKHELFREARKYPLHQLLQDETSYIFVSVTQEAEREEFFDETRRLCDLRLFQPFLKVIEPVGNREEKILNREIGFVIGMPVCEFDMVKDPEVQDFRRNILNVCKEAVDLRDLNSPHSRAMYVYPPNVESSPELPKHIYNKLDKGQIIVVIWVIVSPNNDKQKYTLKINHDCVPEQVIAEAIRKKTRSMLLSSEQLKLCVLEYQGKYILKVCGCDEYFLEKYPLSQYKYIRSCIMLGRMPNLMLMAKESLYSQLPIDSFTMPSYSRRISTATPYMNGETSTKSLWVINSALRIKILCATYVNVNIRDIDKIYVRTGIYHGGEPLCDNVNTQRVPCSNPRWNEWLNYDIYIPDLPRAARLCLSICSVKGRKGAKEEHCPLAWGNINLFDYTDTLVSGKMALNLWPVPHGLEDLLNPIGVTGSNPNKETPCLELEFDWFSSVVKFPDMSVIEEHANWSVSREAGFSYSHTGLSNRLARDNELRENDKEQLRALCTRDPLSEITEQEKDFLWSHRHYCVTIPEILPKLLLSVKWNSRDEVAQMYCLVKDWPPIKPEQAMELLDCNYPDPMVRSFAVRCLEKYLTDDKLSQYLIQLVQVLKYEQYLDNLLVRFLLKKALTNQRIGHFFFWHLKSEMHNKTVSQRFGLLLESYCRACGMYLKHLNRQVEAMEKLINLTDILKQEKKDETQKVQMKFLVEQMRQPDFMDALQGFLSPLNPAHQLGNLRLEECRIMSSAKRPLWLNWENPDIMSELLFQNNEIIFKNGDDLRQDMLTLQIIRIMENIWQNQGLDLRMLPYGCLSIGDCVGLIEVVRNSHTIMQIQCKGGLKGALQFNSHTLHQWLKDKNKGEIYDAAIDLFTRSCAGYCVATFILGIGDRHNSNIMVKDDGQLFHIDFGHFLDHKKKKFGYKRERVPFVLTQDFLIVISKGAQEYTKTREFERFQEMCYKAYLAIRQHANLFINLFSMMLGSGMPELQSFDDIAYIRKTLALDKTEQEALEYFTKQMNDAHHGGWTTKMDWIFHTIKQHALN

With `C=CC(=O)N1CCC[C@@H](n2nc(-c3ccc(Oc4ccccc4)cc3)c3c(N)ncnc32)C1` the remaining activity was 90.5% (SYK (Homo sapiens, UniProt P43405); 0.1 µM).
The remaining activity of `CNCC(=O)O` is reported as 77.5% (Sodium- and chloride-dependent glycine transporter 2 (Homo sapiens, UniProt Q9Y345, S479G); glycine uptake, inhibitor, [3H]glycine uptake; 1000 µM, S479G mutant, log concentration 1, together with: [3H]glycine; reference: no inhibitor).
For `NCCC(=O)N[C@@H](Cc1cnc[nH]1)C(=O)O`, “z-scored log2 fold change” read 0.0659 (binding, equilibrium dialysis LC-MS; 5 µM, thermostabilized A2AR-BRIL construct; reference: no-protein control, direction not given).
`COc1cc(F)ccc1-c1ncnc(Nc2cccc(C[S@](C)(=N)=O)c2)n1` has a remaining activity of 114% (GRK5 (Homo sapiens, UniProt P34947); kinase activity; 10 µM, together with: 10 µM ATP).
For `COc1cc(Nc2ncc3c(n2)-c2ccc(Cl)cc2C(c2c(F)cccc2OC)=NC3)ccc1C(=O)O`, the remaining activity was 0% (Aurora B kinase (AURKB); enzyme activity; 1 µM).
The remaining activity of `COc1cc(-c2cncc3c2CN(C)Cc2cc(N4CCNCC4)ccc2-3)cc(OC)c1OC` is reported as 102% (Phosphatidylinositol 4,5-bisphosphate 3-kinase catalytic subunit alpha isoform, with p85 alpha (Pik3ca, Mus musculus, UniProt P42337); kinase activity; 1 µM, p110a/p85a)(m mouse, together with: ATP 10 µM; reference: DMSO).
The remaining activity of `Nc1ncc2c(n1)-c1c([nH]c3ccc(-c4ccc(F)cc4)cc13)CCC2` is reported as 98% (PAK3 (Homo sapiens, UniProt O75914); kinase activity, inhibitor, radiometric; 1 µM, together with: ATP at Km).
`Cc1cc(NC(=O)c2cccc(NC(=O)/C=C/CN(C)C)c2)ccc1Nc1nccc(-c2cccnc2)n1` has a remaining activity of 0.868 (MAPK8 (Homo sapiens, UniProt P45983); enzyme activity, inhibitor; 0.1829 µM, 6 h, unit not given, together with: GSH 10 mM pre-incubation; reference: vehicle).
`O=C(NC1CCC1)c1ccc2nc(-c3cccc(NS(=O)(=O)NCCN4CCCCC4)c3)cn2c1` has a remaining activity of 98% (TTK (Homo sapiens, UniProt P33981); enzyme activity; 10 µM).
`COc1cc(N2CCN(C)CC2)ccc1Nc1nc(N)n(C(=S)NCc2c(Cl)cccc2Cl)n1` has a remaining activity of 20% (NLK (Homo sapiens, UniProt Q9UBE8); enzyme activity; 10 µM; reference: control).
Under “z-scored log2 fold change”, `Cc1cc2nc3c(=O)[nH]c(=O)nc-3n(C[C@H](O)[C@H](O)[C@H](O)COP(=O)(O)OP(=O)(O)OC[C@H]3O[C@@H](n4cnc5c(N)ncnc54)[C@H](O)[C@@H]3O)c2cc1C` is recorded as -0.0754 (binding, equilibrium dialysis LC-MS; 5 µM, thermostabilized A2AR-BRIL construct; reference: no-protein control, direction not given).
For `O=C(O)c1ccc(Nc2ncc3c(n2)-c2ccc(Cl)cc2C(c2c(F)cccc2F)=NC3)cc1`, the remaining activity was 81% (human CLK3(h); kinase activity; 1 µM).

A few entries again:
`COc1cc(N2CCN(C)CC2)ccc1Nc1nc(N)n(C(=S)NCc2c(Cl)cccc2Cl)n1` has a remaining activity of 20% (NLK (Homo sapiens, UniProt Q9UBE8); enzyme activity; 10 µM; reference: control).
